{"data": "Literature values, collected from citations in different studies", "note": "Protocols differ between the studies behind these lines. Numbers after ± are the reported error."}
{"Structure (SMILES)": "Cc1[nH]c(C)c(-c2ccc(S(=O)(=O)c3ccc(Cl)cc3)cc2)c(=O)c1Cl", "target or system": "Plasmodium falciparum", "test": "whole cell extended time", "test system": "3D7", "conditions": "72 h", "measurement": "IC50", "value": "140 nM"}
{"Structure (SMILES)": "COC(=O)C1=C(C)NC(C)=C(C(=O)OC)C1c1c(-c2cccc(OC)c2)nc2sccn12", "test": "calcium-induced contraction, relaxant", "test system": "guinea pig ileum longitudinal muscle", "measurement": "IC50", "value": "83 nM"}
{"Structure (SMILES)": "CC(C)CC1c2[nH]c3ccccc3c(=O)c2CN1C(=O)OC(C)(C)C (stereo not drawn)", "target or system": "Plasmodium falciparum", "test": "whole cell extended time", "test system": "3D7", "conditions": "72 h", "measurement": "IC50", "value": "220 nM"}
{"Structure (SMILES)": "COc1ccccc1Oc1cccc(CN2CCC(NC(=O)C3CC(=O)Nc4ccccc43)CC2)c1 (stereo not drawn)", "target or system": "human CCR8 F123A mutant (TM3)", "test": "IP accumulation, agonist", "measurement": "EC50", "value": "19 nM"}
{"Structure (SMILES)": "Cc1[nH]c(C)c(-c2ccc(CCc3ccc(F)cc3F)cc2)c(=O)c1Br", "target or system": "Plasmodium falciparum", "test": "whole cell extended time", "test system": "3D7", "conditions": "72 h", "measurement": "IC50", "value": "10 nM"}
{"Structure (SMILES)": "COc1ccccc1Oc1cccc(CN2CCC(O)(c3ccccc3C(=O)O)CC2)c1", "target or system": "human CCR8 S110H mutant (TM3)", "test": "IP accumulation, agonist", "measurement": "EC50", "value": "> 10000 nM"}
{"Structure (SMILES)": "COc1ccc(C2CC(=O)C3=C(C2)NC(C)=C(C(=O)OC(C)C)C3c2cccc(O)c2)cc1OC (stereo not drawn)", "target or system": "Plasmodium falciparum", "test": "whole cell extended time", "test system": "3D7", "conditions": "72 h", "measurement": "IC50", "value": "780 nM"}
{"Structure (SMILES)": "Oc1ccc(-c2nc(-c3ccncc3)c(-c3ccc(F)cc3)[nH]2)cc1", "target or system": "CSNK1G1", "test": "kinase activity, inhibitor", "conditions": "0.5 µM", "measurement": "inhibition", "value": "3%"}
{"Structure (SMILES)": "Nc1cccc2c1C(=O)N(C1CCC(=O)NC1=O)C2=O (stereo not drawn)", "test system": "relapsed refractory multiple myeloma patients", "conditions": "dose not given", "measurement": "median overall survival", "value": "13.6 months"}
{"Structure (SMILES)": "Nc1nc(Nc2ccc(S(N)(=O)=O)cc2)n(C(=S)Nc2c(F)cccc2F)n1", "target or system": "CSNK1E", "test": "kinase activity, inhibitor", "conditions": "0.5 µM", "measurement": "inhibition", "value": "8%"}
{"Structure (SMILES)": "COc1ccc(-c2cc(-c3ccc(S(C)(=O)=O)cc3)cnc2N)cn1", "target or system": "Plasmodium falciparum", "test": "whole cell extended time", "test system": "3D7", "conditions": "72 h", "measurement": "IC50", "value": "190 nM"}
{"Structure (SMILES)": "COC(=O)C1=C(C)NC(C)=C(C(=O)OC)C1c1c(-c2cccc(C(F)(F)F)c2)nc2sccn12", "test": "decrease in atrial rate", "test system": "guinea pig right atrium", "measurement": "EC50", "value": "3760 nM"}
{"Structure (SMILES)": "COc1ccc2c(=O)c(C3CCC(c4ccc(Cl)cc4)CC3)c(C)[nH]c2c1 (stereo not drawn)", "target or system": "Plasmodium falciparum", "test": "whole cell extended time", "test system": "3D7", "conditions": "72 h", "measurement": "IC50", "value": "650 nM"}
{"Structure (SMILES)": "COC(=O)C1=C(C)NC(C)=C(C(=O)OC)C1c1c(-c2cccc(OC(F)(F)F)c2)nc2sccn12", "test system": "guinea pig right atrium", "conditions": "5 µM, spontaneously beating", "how to read": "reference: control", "measurement": "decrease in atrial rate", "value": "69 ± 4.3%"}
{"Structure (SMILES)": "COc1ccccc1Oc1cccc(CN2CCC(NC(=O)C(CCN3CCCC3)c3ccccc3)CC2)c1 (stereo not drawn)", "target or system": "human CCR8 S289A mutant (TM7)", "test": "IP accumulation, agonist", "measurement": "EC50", "value": "17 nM"}
{"Structure (SMILES)": "Nc1cc(C(F)(F)F)c(-c2nc(N3CCOCC3)nc(N3CCOCC3)n2)cn1", "target or system": "MOLT-4", "measurement": "GI50", "value": "393 nM"}
{"Structure (SMILES)": "CNC(C)C1CCC(N)C(OC2C(N)CC(N)C(OC3OCC(C)(O)C(NC)C3O)C2O)O1 (stereo not drawn)", "target or system": "Klebsiella pneumoniae", "test system": "clinical isolate RKI-No_107/15", "measurement": "MIC", "value": "≤ 0.5 mg/L"}
{"Structure (SMILES)": "COC(=O)C1=C(C)NC(C)=C(C(=O)OC)C1c1c(-c2ccccc2OC(F)(F)F)nc2sccn12", "test system": "guinea pig left atrium", "conditions": "5x1.000e-06 M", "measurement": "decrease in contractile force", "value": "67 ± 2%"}
{"Structure (SMILES)": "Oc1c2ccccc2c2c3c(cccc13)N=N2", "target or system": "CSNK1G1", "test": "kinase activity, inhibitor", "conditions": "0.5 µM", "measurement": "inhibition", "value": "14%"}
{"Structure (SMILES)": "CC(C)(C)c1ccc(O)c(CN(Cc2cc(C(C)(C)C)ccc2O)C2CCC(NC(N)=O)CC2)c1 (stereo not drawn)", "target or system": "HMC3", "conditions": "concentration not given, together with: thrombin", "measurement": "TNF-α level", "value": "decreased"}
{"Structure (SMILES)": "COC(=O)C1=C(C)NC(C)=C(C(=O)OC)C1c1c(-c2cc(OC)c(OC)cc2[N+](=O)[O-])nc2sccn12", "test": "negative inotropic effect", "test system": "guinea pig, isolated left atrium", "measurement": "EC50", "value": "1340 nM"}
{"Structure (SMILES)": "CCNS(=O)(=O)c1ccc(OC)cc1C1(O)CCN(Cc2cccc(Oc3ccccc3OC)c2)CC1", "target or system": "human CCR8 K193A mutant (TM5)", "test": "IP accumulation, agonist", "measurement": "EC50", "value": "4 nM"}
{"Structure (SMILES)": "Cc1c(C#N)cccc1[C@@H](C)Nc1nnc(C)c2cnc(N3CCOCC3)cc12", "target or system": "OCI-AML-5", "test": "ERK phosphorylation, In-Cell Western, refers to: phospho-ERK", "measurement": "IC50", "value": "107 ± 33.7 nM"}
{"Structure (SMILES)": "O=C(Nc1nc2ccccc2[nH]1)c1ccccc1", "target or system": "SMN2 isoform d", "conditions": "PubChem AID 1458", "measurement": "activity", "value": "4 µM"}
{"Structure (SMILES)": "CC(C)(C)NCC(O)c1ccc(O)c(CO)c1 (stereo not drawn)", "test system": "COPD patients", "conditions": "4 mg single, 6 h, day 1", "how to read": "reference: baseline, placebo-corrected", "measurement": "trough FEV1 change", "value": "94 mL"}
{"Structure (SMILES)": "CC1(C)S[C@@H]2[C@H](NC(=O)[C@H](N)c3ccccc3)C(=O)N2[C@H]1C(=O)O", "target or system": "Acinetobacter baumannii", "test system": "clinical isolate RKI-No_32/16", "measurement": "MIC", "value": "> 16 mg/L"}
{"Structure (SMILES)": "Cc1[nH]c2ccc(C#N)cc2c(=O)c1Br", "target or system": "Plasmodium falciparum", "test": "whole cell extended time", "test system": "3D7", "conditions": "72 h", "measurement": "IC50", "value": "640 nM"}
{"Structure (SMILES)": "COc1ccccc1Oc1cccc(CN2CCC3(CC2)C(=O)NCN3CCc2ccccc2)c1", "target or system": "human CCR8 Y113A mutant (TM3)", "test": "IP accumulation, agonist", "measurement": "EC50", "value": "> 10000 nM"}
{"Structure (SMILES)": "COC(=O)C1=C(C)NC(C)=C(C(=O)OC)C1c1c(-c2ccc(OC)c(OC)c2)nc2sccn12", "test": "decrease in atrial rate", "test system": "guinea pig right atrium", "measurement": "EC50", "value": "3010 nM"}
{"Structure (SMILES)": "CC(Cl)=CCc1c(C)[nH]c2c(ccc3ccccc32)c1=O", "target or system": "Plasmodium falciparum", "test": "whole cell extended time", "test system": "3D7", "conditions": "72 h", "measurement": "IC50", "value": "200 nM"}
{"Structure (SMILES)": "C[C@H]1COCCN1c1nc(-c2cnc(N)cc2C(F)F)nc(N2CCOCC2)n1", "target or system": "BT-20", "measurement": "GI50", "value": "183 nM"}
{"Structure (SMILES)": "COC(=O)C1=C(C)NC(C)=C(C(=O)OC)C1c1c(Cl)nc2sc(C)cn12", "test": "calcium-induced contraction, relaxant", "test system": "guinea pig ileum longitudinal muscle", "measurement": "IC50", "value": "2060 nM"}
{"Structure (SMILES)": "CCN(c1cc(-c2ccc(CN3CCOCC3)cc2)cc(C(=O)NCc2c(C)cc(C)[nH]c2=O)c1C)C1CCOCC1", "test system": "treated epithelioid sarcoma patients", "conditions": "dose not given", "measurement": "overall response rate", "value": "11%"}
{"note": "A few entries again:"}
{"Structure (SMILES)": "Cc1c(C#N)cccc1[C@@H](C)Nc1nnc(C)c2cnc(N3CCOCC3)cc12", "target or system": "OCI-AML-5", "test": "ERK phosphorylation, In-Cell Western, refers to: phospho-ERK", "measurement": "IC50", "value": "107 ± 33.7 nM"}
{"Structure (SMILES)": "O=C(Nc1nc2ccccc2[nH]1)c1ccccc1", "target or system": "SMN2 isoform d", "conditions": "PubChem AID 1458", "measurement": "activity", "value": "4 µM"}
{"Structure (SMILES)": "CC(C)(C)NCC(O)c1ccc(O)c(CO)c1 (stereo not drawn)", "test system": "COPD patients", "conditions": "4 mg single, 6 h, day 1", "how to read": "reference: baseline, placebo-corrected", "measurement": "trough FEV1 change", "value": "94 mL"}
{"Structure (SMILES)": "CC1(C)S[C@@H]2[C@H](NC(=O)[C@H](N)c3ccccc3)C(=O)N2[C@H]1C(=O)O", "target or system": "Acinetobacter baumannii", "test system": "clinical isolate RKI-No_32/16", "measurement": "MIC", "value": "> 16 mg/L"}
